Results gathered from unrelated publications.
Parts stem from different laboratories: compare values within a part only.

Study 1
Target: Sal-like protein 4, full length isoform A (SALL4, Homo sapiens, UniProt Q9UJQ4, residues 1-1053)
UniProt Q9UJQ4, sequence (whole entry, looked up): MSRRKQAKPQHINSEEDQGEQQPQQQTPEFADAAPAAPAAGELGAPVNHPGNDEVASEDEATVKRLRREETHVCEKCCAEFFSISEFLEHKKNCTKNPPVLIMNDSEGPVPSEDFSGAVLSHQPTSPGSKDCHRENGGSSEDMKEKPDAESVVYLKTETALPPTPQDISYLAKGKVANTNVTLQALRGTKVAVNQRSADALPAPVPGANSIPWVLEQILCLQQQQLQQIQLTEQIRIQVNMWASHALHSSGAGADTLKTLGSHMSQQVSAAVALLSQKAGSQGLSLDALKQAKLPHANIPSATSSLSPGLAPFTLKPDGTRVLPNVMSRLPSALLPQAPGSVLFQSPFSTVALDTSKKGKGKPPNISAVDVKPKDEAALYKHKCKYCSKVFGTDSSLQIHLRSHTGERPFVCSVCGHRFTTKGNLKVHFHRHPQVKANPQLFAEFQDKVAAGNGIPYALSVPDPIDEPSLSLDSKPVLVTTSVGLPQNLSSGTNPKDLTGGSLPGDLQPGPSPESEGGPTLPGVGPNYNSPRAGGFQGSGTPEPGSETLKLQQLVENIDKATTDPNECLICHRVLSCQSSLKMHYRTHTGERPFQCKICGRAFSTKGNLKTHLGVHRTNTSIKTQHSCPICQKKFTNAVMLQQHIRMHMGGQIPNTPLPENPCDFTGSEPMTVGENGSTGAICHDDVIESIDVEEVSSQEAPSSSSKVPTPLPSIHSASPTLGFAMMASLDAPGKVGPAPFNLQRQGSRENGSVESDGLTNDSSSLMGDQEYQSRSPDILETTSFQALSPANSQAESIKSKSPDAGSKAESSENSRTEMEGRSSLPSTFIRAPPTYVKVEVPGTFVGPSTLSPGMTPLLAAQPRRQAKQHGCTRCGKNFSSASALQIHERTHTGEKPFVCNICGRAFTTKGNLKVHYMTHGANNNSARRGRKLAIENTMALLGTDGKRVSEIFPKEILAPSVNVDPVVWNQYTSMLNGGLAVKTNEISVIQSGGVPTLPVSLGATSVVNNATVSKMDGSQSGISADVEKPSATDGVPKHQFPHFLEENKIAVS
Method: universal PBM
Molecule type: double-stranded DNA, one strand shown
Sample: in vitro
Concentration: 600 nM
Setting: 8-mer, flanks averaged, mean of replicates
Direction: higher = stronger binding
Sequence | E-score
ATGGATAG | 0.0263
ACCTCCTG | -0.139
CGGCCGCC | -0.339
GCGTTGAC | -0.181
AGAGGATC | -0.197
AACTAACA | 0.152
GCTGGCGA | -0.26
AATCCGTG | -0.081
CATTGTAG | 0.0903
TCTTACAA | 0.137
AGAAGTTA | 0.203
TCTAAACA | 0.243
AAGTACCC | -0.23
GTCGAAGA | -0.0306
AGACATAA | 0.246
AAATCTAC | 0.234
ACAATTAA | 0.38
CAGATTCC | -0.233
AGTCCTTG | -0.058
ACACGTAT | 0.168

Study 2
Target: RNA binding protein fox-1 homolog 2, RRM domain, GST-SBP tag (RBFOX2, Homo sapiens, UniProt O43251-10, residues 100-194)
Method: RNA Bind-n-Seq
Molecule type: RNA
Sample: in vitro
Concentration: 365 nM
Setting: natural RNA segment, single round, ends assumed
Baseline: no-protein control
Direction: higher = stronger binding
All sequences stand within: GGGAGUUCUACAGUCCGACGAUC … UGGAAUUCUCGGGUGCCAA
Residues (chain): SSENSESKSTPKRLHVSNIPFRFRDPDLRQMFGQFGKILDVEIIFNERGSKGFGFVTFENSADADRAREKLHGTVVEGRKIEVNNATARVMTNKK
Sequence | RBNS enrichment (R)
CCUGGUUGAGAGCUAAGACAACCACCUACCAGUGCCCAUGUCCCUUCCAGCUCACCUUGAGCAGCCUCAGAUCAUCUCUGUCACUCUGGAAGGGACACCCCAGCCAGGGA | 0.242
AUAGAAAAUGACUUUAGAGAUGAGUGGUUUUGUGUAUGUGUCUGAUGAUAUUCAGUCUGAUGUUCCGCAAUUUUAAAAGUUAUAAUAAAAUACCAUUUUUUUAAUCUGGA | 5.44
UUUCCCCCUUCUUGUUUGCACAUGCCAAGAUAACUGCUUUUAUGCAGGCUGUACCCCCUUGAAAAAUCCUUUCUACAGUGCUGCUCACAAAAGAGCCCAAGUUCGCCUCC | 1.06
UCAAAGGCGAUUUAUCACAUGUAUAGAACAGGCCAAGUGUAGAAAAACAUAGAAGUCAUUGUUAGUCUUGAAUUCAGCAAGCGUUAAUCAAUCUAUAUUUAAUUCAGUUC | 0.547
UUUCUAAAGCUGAAUGUCAAACAGUGCCAAAUGCUGGGGCAGGGGGUGAAGAACCCUCUGUCCCACCCCUAGCCACCAGUGUCCUCCAAGUGCCCCCUCACCUCUCCAGG | 0.171
ACACCUAUUGCGUGAACAGAAUAUGCAUUAUUAAAGCAAAAAUAAAUAAAAAAUAAAAUGCAAGUGAAAACAGGGGGGGAAUUGGAUUAUUUCCUGCACUGGGUUGUGCG | 0.646
CCUGCCGAGCGGCUGCUGGAGUCUGGAGCCAUCGCAUUGCGGGUGUAGCAGCGCAUCAGGCUUGAGAUGCCAGGGGUUUGAUACAGGCGUGGAAUCACUUUCCAGGCCAG | 0.33
AACCACCAUGCCCAGCCGAAAAGCUUUUGAGGGGCUGACUUCAAUCCAUGUAGGAAAGUAAAAUGGAAGGAAAUUGGGUGCAUUUCUAGGACUUUUCUAACAUAUGUCUA | 0.745
UCCUGGAGGUGACUGGAGUAGCUGCUUUGCCAUUUCAUCACUGGGAUUCUGAACAGGCGCCAAGCUAACAGGUGGAGAAAUGAGCCAGAACUCCCUGUCUGAAAAGGAUG | 0.572
UCUACCCGGGAAGGAACAUAUGACGACAUGCUCCUCCCAUGUCCCCUGAUGGUGUCUGUUCCCACAAUAUCCUUCUAGUCUGCAUCGUGAAGUGGCUUAGGCCAAAGCUU | 1.75
UACCUAAAUUUUCUUAAAAAAAAAUCUAGUAUAGCACUACAUUCUUUUUUAAGUGAUGCAGACCUUAGUUUCUUUAGCCCCUUUAUUUUGAAUACAAUGCUACAUAUGAA | 0.835
CCCGAGAUGAUCCUCAGCAUGAUGGACCGGUGUGGCGGAGCCUUGUGCGUCGCCAGGACUUCUCUGGGCUGUGUUUAAACGGCCCGCAUCUUAAUUUUUCUCCCUUCUUU | 33.2

Study 3
Target: Histone acetyltransferase KAT6A, winged helix 2, GST fusion (KAT6A, Homo sapiens, UniProt Q92794, residues 85-181)
Method: protein binding microarray
Molecule type: double-stranded DNA, one strand shown
Sample: in vitro
Concentration: not given
Setting: 8-mer, flanks averaged, mean of 2 arrays, mostly near background
Baseline: not given
Direction: higher = stronger binding
Residues (chain): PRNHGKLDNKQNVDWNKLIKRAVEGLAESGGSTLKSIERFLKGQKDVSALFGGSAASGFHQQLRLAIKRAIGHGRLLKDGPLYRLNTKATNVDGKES
Sequence | E-score
ACGAATGG | 0.00418
GAAGACTC | -0.0657
GCGCGTCC | -0.0259
CCTACAGC | -0.183
AAATGGAT | -0.175
AACCCGAG | 0.149
CAGCCCAC | 0.13
AAGATACA | -0.0418
AGTGCATC | 0.0071
CTTGAAAC | 0.138
AGCACCGA | 0.174
AATGTCTC | -0.173
ACACTCCT | -0.159
CCACAGTC | -0.112
CGCACGAG | -0.117
ATATCGGC | 0.124
CAATCGTC | -0.172
AGAGCTGA | 0.00903

Study 4
Target: Interferon regulatory factor 7, full length, phosphomimetic (IRF7, Homo sapiens, UniProt Q92985, residues 1-503, S101K/S471D/S472D/S475D/S476D/S477D/S483D/S484D/S487D)
Method: protein-binding microarray
Molecule type: double-stranded DNA, one strand shown
Sample: in vitro
Concentration: 250 nM
Setting: 60-bp whole probe
Added: salmon DNA 0.4 mg/ml
Baseline: random background probes
Direction: higher = stronger binding
All sequences stand within: GCCTAGCAC … GTCTTGATTCGCTTGACGCTGCTG
Residues (chain): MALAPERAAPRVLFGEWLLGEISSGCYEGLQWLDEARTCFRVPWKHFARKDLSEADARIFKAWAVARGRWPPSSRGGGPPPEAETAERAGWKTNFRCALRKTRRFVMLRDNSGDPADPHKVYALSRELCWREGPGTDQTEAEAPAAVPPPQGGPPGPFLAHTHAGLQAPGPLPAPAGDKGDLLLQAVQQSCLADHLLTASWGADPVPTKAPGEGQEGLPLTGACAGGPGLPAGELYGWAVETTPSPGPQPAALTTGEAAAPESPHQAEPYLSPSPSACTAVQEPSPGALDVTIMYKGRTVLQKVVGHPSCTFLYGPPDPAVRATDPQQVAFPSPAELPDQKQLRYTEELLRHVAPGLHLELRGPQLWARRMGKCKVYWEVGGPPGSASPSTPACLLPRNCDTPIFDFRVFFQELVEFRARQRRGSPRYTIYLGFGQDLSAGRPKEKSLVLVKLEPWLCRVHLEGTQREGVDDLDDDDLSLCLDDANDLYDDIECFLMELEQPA
Sequence | log fluorescence [z-score]
TTAGGTATCCTTCTCCTTTGGTGCTAG | 0.224
GACTATATCAGTATCGAGACGTGCTAG | 0.393
TTAGATTTCGGGGATCGATTAGTGCTA | 0.454
GACGATATCGGGTATCGAAACGTGCTA | 0.375
GACGGTATGCTTCTCCTGACGTGCTAG | -0.602
GACGGTATTGGACTGGGGACGTGCTAG | -0.343
TTAGGTATCGTTCTCCTTTAGTGCTAG | 2.26
TCACATTTGGAAAATGAAACTGTGCTA | 1.91
TCATAAATCTTTGTTGGAACTGTGCTA | -0.167
GGTTTTTACTTTCTGAATGCGTGCTAG | 3.23
TTAGGACTGGGTTTGGGTTAGTGCTAG | 0.316
TCATGCTCATTTTTCAGACTGTGCTAG | 0.568
CCCTGGCTCCCTATAAAAGGGTGCTAG | -0.512
ATAGATCTCAGTATCGATTAGTGCTAG | 0.953
TCATTTCTGAATGCTCCCACTGTGCTA | 1.24
CAAAAATGATTGGTTGAACAGTGCTAG | -0.401
GACGGACTGGGGTATCAGGACGTGCTA | -0.665
TCATGTCTCTGTCCCTGACTGTGCTAG | 0.186
GACGATTCCAGTTTCGAGTCGTGCTAG | 8.74
TTAGGTCTGGGGTTTCGGTTAGTGCTA | 4.62
TTAGATTCCAGTTTCGAGTAGTGCTAG | 6.82
CACTCTCTGGGCTGTGGGTTTGTGCTA | 0.455
TTAGGTTTCCTTATACTTTAGTGCTAG | 2.31

Study 5
Target: RING finger protein unkempt homolog, zinc fingers 1-6, GST-SBP tag (UNK, Homo sapiens, UniProt Q9C0B0, residues 30-357)
Method: RNA Bind-n-Seq
Molecule type: RNA
Sample: in vitro
Concentration: not given
Setting: RNA with constant flanks, human-mouse chimeric sites, ends assumed
Baseline: input RNA pool
Direction: higher = stronger binding
All sequences stand within: GGGAGUUCUACAGUCCGACGAUC … CAACAGAGGAUUGAGCAUCA
Construct (chain): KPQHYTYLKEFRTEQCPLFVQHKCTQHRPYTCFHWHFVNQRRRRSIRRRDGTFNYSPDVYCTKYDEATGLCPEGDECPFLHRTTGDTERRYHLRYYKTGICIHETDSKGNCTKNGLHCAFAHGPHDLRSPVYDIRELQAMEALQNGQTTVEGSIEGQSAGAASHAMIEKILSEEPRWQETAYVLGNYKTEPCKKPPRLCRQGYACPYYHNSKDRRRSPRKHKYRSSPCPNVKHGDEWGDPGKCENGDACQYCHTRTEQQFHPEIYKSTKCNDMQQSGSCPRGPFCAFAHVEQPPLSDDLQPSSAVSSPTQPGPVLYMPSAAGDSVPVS
Sequence | bound/input enrichment [ratio]
AACGUGGAGUUGAGUUCCUUGGCCCGGCUUCCCAGCUUGAAUAAACUUCGAAAAUUGGAACUUAGUGAUAAUAUAAUUUCUGGAGGCUUGGAAGUCCUGGCAGAGAAAUGUCCAAAUCUU | 2.93
GAGCGUCUUGCCCGCACUGGGAUCAUCGUGACCACUAGUGAGGCUGUCCUCCUACAGCUGGUGGCUGAUAAGGACCACCCGAAGUUCAAGGAAAUUCAGAACCUAAUUAAGGCGAGUGCC | 0.155
GGACAUCUGUCAAAUUGUUAUGUUCCUGUGAAACAAGUGAACACUCUUCAUAUACUAAUUUAGUUGUACAUCUGUAUGAUAGAGAAAUGUAAAUAUGUUAAUCCAAGCAAUGUGUCACUU | 0.482
AAAGAGUGGAUAGAGUGUGCACAUGGAAUCGGUGGGACCCGGGCGAAAAAGGAGUGCAAGAUAGAGUUCGAUGACUUCGUAGAGUGUUUGCUUCGGUACAAAACGAUGAGGCGAAUGCAU | 0.46
CGGAGCCCUCCUCUCCCACAGGCCCAAGAUAUAACCCACCAGUGCCUUUUGUCUUCCCGUUAGCUUUGUCAAUCACGGCCCUGCCUUCACGCCCACACCAAGUGCCCAAAGUGGGGAGGG | 1.66
UGACAAGCACGAGCAUCAGCCAUGCCUUUCCUUGACAUACAGAAAAAGCUGGGCAUCAGCCUGGACCGAUGGUUGACGUUCCUAAGCGCAGAACAGCCCUAUAAGAACGCCGCUCGGUGC | 0.0762
AGAGAAAUGAGAAAGAAUCUUACACAAGAUGAGAUGCAAAGAAUGUCUACUAGAGUCCUUUUGGCGACUCUUUCCAUCCCUAUUACUCCUGAGCGAACUGAUAUUGCUCGACUUUUGGAU | 0.0996
GGGUGGGGGUUGUCAUUCGUUUGAGCUGCUGAUUUUCAUGAGUCGCCUUCAAAACUCUCGUGUAGGGUUGACAAUGUGGGGGGGUGGGGGAUCCAGCUUAUUCUUUUAUUUUCAAGUCCA | 0.578
AGAUUCCCCCUCCUGAGGCCUUCUCCAAAAUUGGCAUCUCUUACAGAUGCCUCAUCCCCUGUUAGCGUUUUAGUUUGGACCACCCAGCCUUGGACAAUUCCCGCCAACCAGGCAAUUUGC | 0.913
GUACUGCAGCAGCAGGGAAAACUGCAGGAAGCUCUGAUGCAUUAUAAGGAGGCUAUUCGAAUCAGUCCUACAUUUGCUGAUGCCUACUCUAAUAUGGGAAACACUCUAAAGGAGAUGCAG | 0.232
GCUCUUGGGAAUGUAAUCAGCGCCUUGGGGGACAAGAGCAAGAGAGCCACCCAUGUCCCCUAUAGAGAUUCCAAGCUGACAAGACUCUUGCAGGAUUCCCUUGGGGGUAACAGCCAAACC | 0.17
